Experimental data of several laboratories.
Every numbered part comes from another study and shows a few of its results, in no order.

Study 1
Target: Histone acetyltransferase KAT6A, both winged helices, GST fusion (KAT6A, Homo sapiens, UniProt Q92794, residues 1-181)
Technique: protein binding microarray
Form: double-stranded DNA, one strand shown
Matrix: in vitro
Tested at: not given
Setting: 8-mer, flanks averaged, mean of 2 arrays, mostly near background
Reference: not given
Reading: higher = stronger binding
Construct (chain): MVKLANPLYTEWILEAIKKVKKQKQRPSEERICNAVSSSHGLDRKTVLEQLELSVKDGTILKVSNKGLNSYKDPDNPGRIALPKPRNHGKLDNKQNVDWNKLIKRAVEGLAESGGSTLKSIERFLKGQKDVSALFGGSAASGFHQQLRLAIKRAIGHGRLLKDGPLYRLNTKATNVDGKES
`ATCCCACA` has an E-score of -0.233.
The E-score of `AGGCAACG` is reported as -0.0974.
The E-score of `AATGCGAG` is reported as -0.159.
`GAGGTTGC` gave an E-score of 0.0432.
`CAACTGTA` gave an E-score of -0.0886.

Study 2
Target: Interferon regulatory factor 7, full length, phosphomimetic (IRF7, Homo sapiens, UniProt Q92985, residues 1-503, S471D/S472D/S475D/S476D/S477D/S483D/S484D/S487D)
Sequence of UniProt Q92985 (whole entry, unmodified, looked up): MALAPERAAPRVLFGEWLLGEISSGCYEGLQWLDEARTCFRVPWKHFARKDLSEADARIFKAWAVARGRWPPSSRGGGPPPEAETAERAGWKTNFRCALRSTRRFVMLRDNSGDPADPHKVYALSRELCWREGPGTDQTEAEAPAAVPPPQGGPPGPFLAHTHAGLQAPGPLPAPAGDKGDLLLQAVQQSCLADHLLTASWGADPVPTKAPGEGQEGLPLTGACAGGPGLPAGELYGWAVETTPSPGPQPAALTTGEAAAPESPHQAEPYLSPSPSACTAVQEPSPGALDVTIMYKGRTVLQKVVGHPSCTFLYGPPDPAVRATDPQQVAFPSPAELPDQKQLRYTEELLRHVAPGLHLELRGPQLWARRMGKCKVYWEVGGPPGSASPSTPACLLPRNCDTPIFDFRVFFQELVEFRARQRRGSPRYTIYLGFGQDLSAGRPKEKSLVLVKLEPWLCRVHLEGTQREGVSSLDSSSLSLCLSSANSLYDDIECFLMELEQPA
Technique: protein-binding microarray
Form: double-stranded DNA, one strand shown
Matrix: in vitro
Tested at: 2200 nM top
Setting: 60-bp whole probe
Together with: salmon DNA 0.4 mg/ml
Reference: random background probes
Reading: higher = stronger binding
All sequences stand within: GCCTAGCAC … GTCTTGATTCGCTTGACGCTGCTG
`GACGGACTGCTTTTCCTGCCGTGCTAG`: “fitted relative affinity” 0.538 z-score.
For `TCAGCTCACACCTGTCATACTGTGCTA`, “fitted relative affinity” read 0.81 z-score.
For `TTAGGTCTCGGTATCGGTTTGTGCTAG`, “fitted relative affinity” read 1.83 z-score.
Under “fitted relative affinity”, `CACGATTTCGGGTATCGAGACGTGCTA` is recorded as 3.15 z-score.
`TCTTATATACCTGTATATCTGTGCTAG`: “fitted relative affinity” 1.05 z-score.

Study 3
Target: Sal-like protein 4, full length isoform A (SALL4, Homo sapiens, UniProt Q9UJQ4, residues 1-1053)
Sequence of UniProt Q9UJQ4 (whole entry, looked up): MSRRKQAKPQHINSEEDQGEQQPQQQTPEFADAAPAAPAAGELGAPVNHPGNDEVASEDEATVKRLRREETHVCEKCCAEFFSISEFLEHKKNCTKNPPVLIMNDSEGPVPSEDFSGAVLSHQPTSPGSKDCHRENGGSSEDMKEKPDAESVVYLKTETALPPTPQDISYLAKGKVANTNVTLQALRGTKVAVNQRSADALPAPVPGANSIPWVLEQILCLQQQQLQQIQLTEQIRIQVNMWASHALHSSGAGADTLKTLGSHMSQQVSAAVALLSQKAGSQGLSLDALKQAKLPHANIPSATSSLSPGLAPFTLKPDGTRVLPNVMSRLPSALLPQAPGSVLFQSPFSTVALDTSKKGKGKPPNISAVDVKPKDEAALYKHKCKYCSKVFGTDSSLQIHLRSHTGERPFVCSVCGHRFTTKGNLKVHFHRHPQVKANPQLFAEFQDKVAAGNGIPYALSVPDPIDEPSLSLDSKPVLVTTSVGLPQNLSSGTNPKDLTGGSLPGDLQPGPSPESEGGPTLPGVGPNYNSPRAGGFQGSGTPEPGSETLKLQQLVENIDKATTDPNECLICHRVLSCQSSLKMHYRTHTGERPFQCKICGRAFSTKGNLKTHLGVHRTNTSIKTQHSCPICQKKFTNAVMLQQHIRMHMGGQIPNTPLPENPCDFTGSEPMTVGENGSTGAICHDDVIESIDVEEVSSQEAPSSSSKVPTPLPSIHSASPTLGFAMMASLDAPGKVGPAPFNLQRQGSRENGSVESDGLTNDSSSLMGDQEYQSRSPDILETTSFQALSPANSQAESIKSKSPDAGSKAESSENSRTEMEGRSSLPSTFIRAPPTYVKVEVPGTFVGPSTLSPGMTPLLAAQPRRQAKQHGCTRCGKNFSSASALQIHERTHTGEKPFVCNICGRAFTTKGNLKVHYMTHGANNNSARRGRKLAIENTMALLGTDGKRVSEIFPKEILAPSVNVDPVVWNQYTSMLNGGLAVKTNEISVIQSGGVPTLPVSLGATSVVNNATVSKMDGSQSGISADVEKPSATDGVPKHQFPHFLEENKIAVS
Technique: universal PBM
Form: double-stranded DNA, one strand shown
Matrix: in vitro
Tested at: 600 nM
Setting: 8-mer, flanks averaged, mean of replicates
Reading: higher = stronger binding
`TCAGTCCA` gave an E-score of -0.197.
For `CGGGTATC`, the E-score was -0.214.
The E-score of `GACCTCTA` is reported as -0.177.
The E-score of `ACGCTTCT` is reported as -0.136.
`GGCTCGAA` gave an E-score of -0.258.

Single results of other studies
`PhoQ, residues 284 288 289 292 302 303 SLCLSL` has a fold induction of 2.78 (PhoP, residues 12 14 15 18 19 STWGI (Escherichia coli, UniProt P23836); Sort-seq, measured: YFP reporter; E. coli; PhoQ-PhoP variant library, together with: 10 µM Mg2+; reference: high Mg2+ state, higher = stronger signaling).

A few entries again (study 2):
Under “fitted relative affinity”, `CACGATTTCGGGTATCGAGACGTGCTA` is recorded as 3.15 z-score.
